Published values of several laboratories.
Each numbered part is a random draw from the data of one study; scales do not carry over between parts. Changes are numbered by the printed parent chain.

Series 1
Change: R49Y
Target: ABI1, truncated, D143A, DHFR fusion (Arabidopsis thaliana)
Technique: DHFR PCA, deep sequencing
Medium: yeast
Setting: methotrexate growth selection, single substitutions
Baseline: wild-type fitted maximum
Reading: higher = stronger binding
Starting sequence: PYL1, truncated, DHFR fusion (Arabidopsis thaliana); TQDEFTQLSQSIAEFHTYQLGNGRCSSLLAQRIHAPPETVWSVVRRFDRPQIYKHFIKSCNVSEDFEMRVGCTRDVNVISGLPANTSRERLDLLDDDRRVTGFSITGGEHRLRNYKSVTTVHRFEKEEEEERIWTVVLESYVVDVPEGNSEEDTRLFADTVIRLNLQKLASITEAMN
together with	relative binding score [%]
(+)-ABA 2500 µM	97.1
(+)-ABA 710 µM	88.3
(+)-ABA 0.032 µM	1.6
(+)-ABA 58 µM	67.4
(+)-ABA 4.8 µM	34.1
(+)-ABA 200 µM	90.4

Series 2
Target: TAR DNA-binding protein 43, full length, His tag (TARDBP, Homo sapiens, UniProt Q13148, residues 1-414)
Technique: RNA Bind-n-Seq
Form: RNA
Medium: in vitro
Tested at: 20 nM
Setting: 6-mer, flanks averaged, single round
Together with: 150 mM LiCl
Baseline: input library
Reading: higher = stronger binding
Strand	6-mer enrichment (R)
CGCCGA	0.88
AGCCCC	1.13
AGUCCG	0.854
CCUACU	0.908
UCUACC	0.868
GGUCGU	1.07
GAAGCC	0.893
GGACCC	1

Series 3
Target: CCNA2, cyclin fold, Cln2 fusion (human)
Technique: yeast growth competition, sequencing
Medium: yeast
Setting: weak parent motif
Baseline: not given
Reading: higher = stronger binding
Starting sequence: MASTL docking peptide (human); PMIAKNLMCELDE
Change	normalised enrichment score
PMIAKNLMCELTE [D12T]	0.055
PMIAKNLMRELDE [C9R]	0.209
PMIAKNLECELDE [M8E]	-0.305
PMSAKNLMCELDE [I3S]	-0.438
PMIAKNLMCEFDE [L11F]	0.655
PDIAKNLMCELDE [M2D]	-0.229
PMIAKNLMYELDE [C9Y]	-0.43
PMIAKNLQCELDE [M8Q]	-0.348

Single results of other studies
SMILES	organism	effect on	tested at	time	setting	quantity	value
Nc1nc(=O)c2nc(CNc3ccc(C(=O)N[C@@H](CCC(=O)O)C(=O)O)cc3)cnc2[nH]1	Sarcocystis neurona	parasite growth	10 µM	96 h	first screen	inhibition	-27.9%

A few entries again (series 2):
Strand	6-mer enrichment (R)
GGACCC	1
CGCCGA	0.88
CCUACU	0.908
